Published values collected from several papers.
Each line is one published result; not all experiments were run side by side. Values joined by “and” are separate records of one study, mostly repeats; a detail may differ.

CC1(C)C(/C=C/C2=C(Cl)C(=C/C=C3/N(CCCCCC(=O)O)c4ccccc4C3(C)C)/C[N+](C)(C)C2)=[N+](CCCCCC(=O)O)c2ccccc21
absorption maximum (10 mM PBS; pH 7.4): 745 nm

COC(=O)c1ccccc1-c1c2ccc(=[N+](C)C)cc-2oc2c1ccc1cccc(O)c12
absorption maximum (aqueous HCl 10% DMSO; 10 to 15 µM, pH 1.9): 567 nm

CC1=CC(C)=[N+]2C1=C(CCCC(=O)NCCCCCC(=O)NCCCC[C@H](NC(=O)N[C@@H](CCC(=O)O)C(=O)O)C(=O)O)c1c(C)cc(C)n1[B-]2(F)F
absorption maximum (acetonitrile/water): 496 nm

COc1cc(OC)cc(C2=C3C(C)=C(I)C(C)=[N+]3[B-](F)(F)n3c(/C=C/c4c[nH]c5ccc([N+](=O)[O-])cc45)c(I)c(C)c32)c1
absorption maximum (THF): 612 nm

COc1cc(/C=C2\SC(=S)NC2=O)cc(OC)c1OCc1ccccc1[N+](=O)[O-]
absorption maximum (PBS; free ligand): 445 nm

CCCCN1C(=O)c2cccc3c(NCCCCCCN4CCOCC4)ccc(c23)C1=O
absorption maximum (aqueous medium; pH 6): 454 nm

NCCC(=O)N1Cc2ccccc2-c2c(nnn2-c2nc(N)c3ncn(C4OC(CO)C(O)C4O)c3n2)-c2ccccc21 (mixture of isomers)
absorption maximum (methanol): 263 nm

CCN(CC)c1ccc(-c2csc3c(C(=O)OC)cc(=O)n(C)c23)cc1
absorption maximum (dichloromethane; 10 µM): 283 nm

COC(=O)c1ccccc1-c1c2ccc(=O)cc-2oc2c1ccc1cccc(OC)c12
absorption maximum (phosphate buffer; 10 to 15 µM, pH 7.4, 10% DMSO): 530 nm

O=C([O-])CN1CCN(CC(=O)[O-])CCN(CC(=O)c2ccc(-c3ccc(OCC(=O)O)cc3)cc2)CCN(CC(=O)[O-])CC1.[Eu+3]
absorption maximum (PBS; pH 7.4): 342 nm

CCCCN1C(=O)c2cccc3c(NCCCN4CCOCC4)ccc(c23)C1=O
absorption maximum (aqueous medium; pH 6): 446 nm

COc1cc(OC)cc(C2=C3C(C)=C(I)C(/C=C/c4c[nH]c5ccc([N+](=O)[O-])cc45)=[N+]3[B-](F)(F)n3c(/C=C/c4c[nH]c5ccc([N+](=O)[O-])cc45)c(I)c(C)c32)c1
absorption maximum (dichloromethane): 690 nm

COCCOCCOc1ccc([P+](Cc2ccc(C3=C4C(C)=CC(C)=[N+]4[B-](F)(F)n4c(C)cc(C)c43)cc2)(c2ccc(OCCOCCOC)cc2)c2ccc(OCCOCCOC)cc2)cc1
absorption maximum (PBS; 10 µM, pH 7.4, 298 K): 497 nm

COc1cc(OC)cc(C2=C3C(C)=C(I)C(C)=[N+]3[B-](F)(F)n3c(C)c(I)c(C)c32)c1
absorption maximum (DMSO): 538 nm

CCn1cc(/C=C/c2ccc3ccccc3[n+]2CC)c2ccccc21
absorption maximum (DMSO; 10 µM): 488 nm

COc1ccc(/C=C/c2ccc(-c3ccc(C)cn3)nc2)cc1
absorption maximum (acetonitrile; zinc-free ligand): 345 nm

CC1=CC(C)=[N+]2C1=C(CCCC(=O)NCCCC[C@H](NC(=O)N[C@@H](CCC(=O)O)C(=O)O)C(=O)O)c1c(C)cc(C)n1[B-]2(F)F
absorption maximum (acetonitrile/water): 495 nm

CC1=CC(C)=[N+]2C1=C(c1ccc(C[P+](c3ccccc3)(c3ccccc3)c3ccccc3)cc1)c1c(C)cc(C)n1[B-]2(F)F
absorption maximum (PBS; 10 µM, pH 7.4, 298 K): 497 nm

CCn1cc(/C=C/c2sc3ccccc3[n+]2CC)c2ccccc21
absorption maximum (PBS; 10 µM): 464 nm

COc1cc(OC)cc(C2=C3C(C)=C(I)C(C)=[N+]3[B-](F)(F)n3c(/C=C/c4c[nH]c5ccccc45)c(I)c(C)c32)c1
absorption maximum (dichloromethane): 618 nm

COc1cc(/C=C2\SC(=S)NC2=O)cc(OC)c1OC
absorption maximum (PBS; free ligand): 393 nm

Cc1ccc(-c2ccc(-c3cc4sccc4o3)cn2)nc1
absorption maximum (aqueous HEPES buffer; pH 7.4, zinc(II) complex): 372 nm

CCc1ccc(C2=C3C(C)=CC(C)=[N+]3[B-](F)(F)n3c(C)cc(C)c32)cc1
absorption maximum (PBS; 10 µM, pH 7.4, 298 K): 488 nm and 538 nm

COCCOCCOCCOc1ccc(/C=C/c2c(I)c(C)c3n2[B-](F)(F)[N+]2=C(C)C(I)=C(C)C2=C3c2cc(OC)cc(OC)c2)cc1
absorption maximum (DMSO): 601 nm

COC(=O)c1ccccc1-c1c2ccc(=[N+](C)C)cc-2oc2c1ccc1cccc(N)c12
absorption maximum (phosphate buffer; 10 to 15 µM, pH 7.4, 10% DMSO): 598 nm

CCOC(=O)c1[nH]c(C)c(/C=C/c2c(I)c(C)c3n2[B-](F)(F)[N+]2=C(C)C(I)=C(C)C2=C3c2cc(OC)cc(OC)c2)c1C
absorption maximum (DMSO): 612 nm

COc1ccc2cc(-c3ccc(-c4ccc(C)cn4)nc3)oc2c1
absorption maximum (acetonitrile; zinc-free ligand): 347 nm

CCCCN1C(=O)c2cccc3c(NCCCCCCCCN4CCOCC4)ccc(c23)C1=O
absorption maximum (aqueous medium; pH 6): 453 nm

COc1cc(OC)cc(C2=C3C(C)=C(I)C(/C=C/c4cccs4)=[N+]3[B-](F)(F)n3c(/C=C/c4cccs4)c(I)c(C)c32)c1
absorption maximum (THF): 670 nm

CCCCN1C(=O)c2cccc3c(NCCN4CCOCC4)ccc(c23)C1=O
absorption maximum (aqueous medium; pH 6): 441 nm

COCCOCCOCCOc1ccc(/C=C/C2=[N+]3C(=C(c4cc(OC)cc(OC)c4)c4c(C)c(I)c(/C=C/c5ccc(OCCOCCOCCOC)cc5)n4[B-]3(F)F)C(C)=C2I)cc1
absorption maximum (THF): 664 nm

Excerpt of the above:
CC1=CC(C)=[N+]2C1=C(c1ccc(C[P+](c3ccccc3)(c3ccccc3)c3ccccc3)cc1)c1c(C)cc(C)n1[B-]2(F)F
absorption maximum (PBS; 10 µM, pH 7.4, 298 K): 497 nm

CCOC(=O)c1[nH]c(C)c(/C=C/c2c(I)c(C)c3n2[B-](F)(F)[N+]2=C(C)C(I)=C(C)C2=C3c2cc(OC)cc(OC)c2)c1C
absorption maximum (DMSO): 612 nm

CCCCN1C(=O)c2cccc3c(NCCCCCCCCN4CCOCC4)ccc(c23)C1=O
absorption maximum (aqueous medium; pH 6): 453 nm

COc1cc(OC)cc(C2=C3C(C)=C(I)C(/C=C/c4cccs4)=[N+]3[B-](F)(F)n3c(/C=C/c4cccs4)c(I)c(C)c32)c1
absorption maximum (THF): 670 nm
